Published values of several laboratories.
Compare with care: the assays were run in different laboratories.

| SMILES | species | medium | route | dose | time | setting | concentration |
| --- | --- | --- | --- | --- | --- | --- | --- |
| Cc1nc(N[C@@H](C)c2ccc(-c3nc(C4CC4)no3)cc2)c2cc(C)oc2n1 | rat | plasma | oral | 10 mg/kg | 24 h | – | 0.565 µM |
| C[Si](C)(C)C[C@H](CN)CC(=O)O | male Sprague-Dawley rat | brain | oral | 30 mg/kg | 1 h | single dose | 5.1 µM |
| CN(C1COC1)C(C)(C)/C=C(\C#N)C(=O)N1CCC[C@H]1Cn1nc(-c2ccc(Oc3ccccc3)cc2F)c2c(N)ncnc21 | female Sprague-Dawley rat | plasma | oral | 40 mg/kg | 6 h | – | 24 ng/mL |
| Cc1cc(/C=C2\CN(C(C)C)C/C(=C\c3cc(C)c(O)c(C)c3)C2=O)cc(C)c1O | female Sprague-Dawley rat | plasma | intravenous | 20 mg/kg | 8 h | – | 110 ng/mL |
| O=c1c2cc(Cl)ccc2sc2c(NCc3ccccc3)nc3ccccc3c12 | male Sprague-Dawley rat | plasma | intravenous | 3 mg/kg | 5 min | single dose | 1440 ng/mL |
| C[Si]1(C[C@H](CN)CC(=O)O)CCCC1 | male Sprague-Dawley rat | brain | oral | 30 mg/kg | 1 h | single dose | 4 µM |
| COc1ccc(S(=O)(=O)N2CCc3ccccc3C2)cc1N1CCN(C(=O)c2ccc(F)cc2C(F)(F)F)CC1 | rat | brain | intravenous | 10 mg/kg | 30 min | single dose | 250 ng/g |
| [2H]C([2H])([2H])C(c1cc2nnc(-c3cc(F)ccc3F)n2nc1OCc1ncnn1C)(C([2H])([2H])[2H])C([2H])([2H])[2H] | Wistar rat | plasma | oral | 6 mg/kg | 2 h | – | 487 ng/mL |
